Assay results collected from several papers.
A part holds a random share of what one study measured.

Sample 1
Target: RNA binding protein fox-1 homolog 2, RRM domain, GST-SBP tag (RBFOX2, Homo sapiens, UniProt O43251-10, residues 100-194)
Method: RNA Bind-n-Seq
Form: RNA
Medium: in vitro
Tested at: 365 nM
Notes: natural RNA segment, single round, ends assumed
Relative to: no-protein control
Direction: higher = stronger binding
Residues (chain): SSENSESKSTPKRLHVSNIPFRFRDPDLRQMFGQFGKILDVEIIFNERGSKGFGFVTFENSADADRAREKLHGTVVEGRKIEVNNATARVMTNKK
Oligonucleotide	RBNS enrichment (R)
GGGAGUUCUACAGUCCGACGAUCUUGCCUGCCACAGAGCAAAAGGAGUGAGUGGAACAGAGUUGCUUCUUACUAGGAGCACAUUCUUUGCCUGCCUUCCCUUCAUCCUAUCCUCUUUGCUUGCUCUCACCUCAUGGAAUUCUCGGGUGCCAA	15.4
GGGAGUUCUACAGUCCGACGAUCACCUAAAACUGUUGAGCAGGUUGCGAUGAGGAGCACAGGGCUAGCUGCAGAGCUGGAUCCUCAGGAGGAUAGCGAAUUAUUUUCAACCCUGGAAUAGAAACCACACACUGUGGAAUUCUCGGGUGCCAA	0.347
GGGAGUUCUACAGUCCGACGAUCGGGGGGCGCUCUAGGGAGCCCCUUGUGCAGAUGCUCUUUAAAUAAUAAAGGUGGUUUUGAUUAAUGGUCUCUGCGUCUACAAACGGAAGCAGCGGUGUGGACAUUUUGAGUGGAAUUCUCGGGUGCCAA	0.492
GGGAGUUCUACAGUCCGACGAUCAUAGUAAUUAAGAUAUAGCUUCAAAAAUGGCUUUGCUUUUGAUUUCUACUCAUAUUCGUAUGGCUCCAGAAAAAUAUUUUUUUCAUAUUUGACAAUGUCAGCUCCACUUUUGGAAUUCUCGGGUGCCAA	0.431
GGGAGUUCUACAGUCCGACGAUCUCCCAGCAUUUUGGGAGGCUGAGGCAAGUGGAUAACUUGAGGUCAUGAGUUCGAAACCAGCCUGGCCAAAACAGUGAAACCCCGUCUCUACUAAAAAUACAAAAUUAGCCUGGAAUUCUCGGGUGCCAA	0.945
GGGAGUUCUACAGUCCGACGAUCAGAACCCACCAGGAGCAGCAGAGUCCCUCUCUGGGAAGGCAGGCUCCCUGAAAUGUGGCAUCAGCAUGAAAACAAGCAGCCUGUCUUUCCUCAUUAACUGGGAGUCCCACUGGAAUUCUCGGGUGCCAA	6.92
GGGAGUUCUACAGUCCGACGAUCCAGUGUUAAUAAUAGUGUGUCAAGAUUGCAAAGUCGACAUACUCAUUUGGUUUAAGCAGGAAUCCUAGAAGCAAAUGGAUGGGGAUAAGAAUAGGUCAUUUUCUAUUCACUGGAAUUCUCGGGUGCCAA	0.45
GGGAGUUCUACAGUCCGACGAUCGCAAUAAGGCCCGAUUCAUCCCACAGCACUGAUCAUCUCUCAAUGCCCCACCCCAAGCGAACGGUAAGAAGGCCUCUCUUAAGAAGGGGAGACAGAUGGCCCUAACUACUUGGAAUUCUCGGGUGCCAA	0.69
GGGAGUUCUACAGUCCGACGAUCCCUAGAAGGACUCUCCCCAACUGUCAAAGCUAAUGCUUUGAGCACUUAGCAAACCAGCAUAAGAGAAUCUACCCAUGGAAUGUUCUGGAAGGUGGGCAGUCCAGGUUACAUGGAAUUCUCGGGUGCCAA	3.11
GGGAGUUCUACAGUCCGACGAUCUCUUCUACCCUCCCCCUCUUCUUUCCCAUUUUAAAAAAGAAAAGAAGGAAAAAGAAAAAAGGGGCAAGGAGCCCCGCGGCGGCCUGGGCAGCGCCUGUGCAGACCUCCCUUGGAAUUCUCGGGUGCCAA	0.244
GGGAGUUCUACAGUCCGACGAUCGCUUUAAGUGUGGUUGGUUUAGGAGAGUUUUCCUUGGGAGAGCUAGCCCUGAGGUAGUCAGGGCUAGCUCCGGAUGGCUGGAGAAGCUGACCUUGUGCCUUAAGUCUACUUGGAAUUCUCGGGUGCCAA	0.243
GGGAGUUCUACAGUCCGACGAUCUUUACAGAAACAUUUUUUAAAUAAGGGAAAUAUUUUAUAUACCAGAUGGUUCACAAGUGAUGGCUCAUAGCUAGUUUUUUUUUUUCUUCUAAAAAAUGUCAGGUUUUUAAUGGAAUUCUCGGGUGCCAA	0.801

Sample 2
Target: RING finger protein unkempt homolog, zinc fingers 1-6, GST-SBP tag (UNK, Homo sapiens, UniProt Q9C0B0, residues 30-357)
Method: RNA Bind-n-Seq
Form: RNA
Medium: in vitro
Tested at: not given
Notes: RNA with constant flanks, ends assumed
Relative to: input RNA pool
Direction: higher = stronger binding
Residues (chain): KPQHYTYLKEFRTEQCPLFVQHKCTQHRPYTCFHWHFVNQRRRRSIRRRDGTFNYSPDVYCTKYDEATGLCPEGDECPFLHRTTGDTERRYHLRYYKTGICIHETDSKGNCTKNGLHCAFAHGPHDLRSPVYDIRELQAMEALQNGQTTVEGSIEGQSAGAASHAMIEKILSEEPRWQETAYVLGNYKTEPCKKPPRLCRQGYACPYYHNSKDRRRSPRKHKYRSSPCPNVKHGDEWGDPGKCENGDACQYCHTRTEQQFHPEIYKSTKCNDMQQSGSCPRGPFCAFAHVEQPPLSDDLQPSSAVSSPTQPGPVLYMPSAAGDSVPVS
Oligonucleotide	bound/input enrichment [ratio]
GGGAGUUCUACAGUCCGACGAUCUUACAUUAAAAAUCAUUGUACUUGCACAACUUAAUUUAGAAAAAGAAUGUGUAUUUCUUCAACCGCCGAGCAUAAGGAUUGCACCCUGUAUCUGAAUGUGGCUCUUUGGAUGGAAGUGCACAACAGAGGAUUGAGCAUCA	1.33
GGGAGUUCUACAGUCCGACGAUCAGGACCGUGCAGAACCCAGCUGCAUUGAAGACCAAUGGAGAGCAUGUAUUUUAACUUGGAUUCCGGCAGGAAGUGAUACAUGAUGGUGAAGAAAACGGCCCUGAAGAAUGGACCAUAUUCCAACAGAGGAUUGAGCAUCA	0.155
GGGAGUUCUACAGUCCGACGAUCGCUGCAUACAUAGAAAAUGCAAAACAGGUUGGCCGCCUUGAAAAUGCAAUCGGGUGGUAUCACCGCCACCCUGGCUAUGGCUGCUGGCUUUCUGGGAUUGAUGUUAGUACUCAGAUGCUCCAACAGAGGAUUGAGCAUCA	0.212
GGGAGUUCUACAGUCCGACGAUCUGAGCCCCGAGCCCGGCGCGGUCCCCGCAAGAUGGACGGUUUCGCCGGCAGCCUCGAUGACCGUAUUUCUGCUGCAAGUACCUCUGACGUUCAAGACCGCCUCUCAGCUCUUGAGUCACGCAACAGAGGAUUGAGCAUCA	0.0917
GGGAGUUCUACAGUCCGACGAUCGAGGAUGGAGAAGACCAGCCAAAGCAAGUUUAUGUUGAUAAGUUGGCUGAAUUAAAAAAUCCCGGUCAACCUAUUAAGAUACGUUUCCAGGAAUCUGAAGAACGACCAAAAUUAUUUGAACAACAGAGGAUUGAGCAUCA	0.41
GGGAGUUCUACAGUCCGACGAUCGCUGAAAAUGAAGAAGAGGCAGCUGAUGUCUGGUACAACUUGGGACAUGUAGCUGUGGGAACCGGAGAUACAAAUUUGGCCCAUCAGUGCUUCAGGCUGGCUCUGGUCAACAACAACAACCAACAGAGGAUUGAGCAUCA	0.142
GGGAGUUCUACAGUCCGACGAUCAUCCAGGCCCUUCGCUGGGUGAGUGAGAAUAUUGCCUUCUUUGGAGGAGAUCCCCGCCGAAUUACUGUCUUUGGCUCUGGCAUCGGUGCAUCCUGUGUCAGUCUCCUUACACUGUCUCAUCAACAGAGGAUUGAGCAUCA	0.141
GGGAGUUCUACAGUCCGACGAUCGAGUCAUCUGACUGGAUGAAGACUGUUCCAAGUUACAACCAAACAAAUAGCUCCAUGGACUUCCGAAAUUAUAUGAUGAGAGAUGAGACUCUGGAACCACUGCCCAAAAACUGGGAAAUGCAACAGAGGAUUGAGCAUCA	0.347
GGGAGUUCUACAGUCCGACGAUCCGGAAGUGAUCCCCUGCGUGGCUGGGCUGCUCGGGUUAGAUCGUCAGGAAAAGCCUAAAGAUCCGACUGUAAGAAAAGAAAAUAGAAGCCAUGUUUCGAAGACCUGUAUUACAGGUACUUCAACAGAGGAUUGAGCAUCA	0.361
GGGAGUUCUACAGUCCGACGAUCAAAUAAAUAUUUAAUUUUUUAAAUUGCUCUUGUAUAAUCAGAUGCCCCUUUUAGUAUUAUUUCCGAAGCGUUGGGAGGGUUUUGCCUAAAGUACAAUUUAUCGGGAAAAACUAGAUUUUACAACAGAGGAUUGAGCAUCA	8.35
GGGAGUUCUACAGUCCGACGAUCUACGGGACCCUGGACACUCACCUGGUGUACUCAGAAGAGUCCCCUCUGAGCUGAGACCGUGCCCGGCUGCUGUGCAGUUUGGCGCAGUGACAGACCCGGCUUUUGUUUCUGGGCUUCCAGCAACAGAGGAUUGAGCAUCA	0.0436

Sample 3
Target: Histone acetyltransferase KAT6A, both winged helices, GST fusion (KAT6A, Homo sapiens, UniProt Q92794, residues 1-181)
Method: protein binding microarray
Form: double-stranded DNA, one strand shown
Medium: in vitro
Tested at: not given
Notes: 8-mer, flanks averaged, mean of 2 arrays, mostly near background
Relative to: not given
Direction: higher = stronger binding
Residues (chain): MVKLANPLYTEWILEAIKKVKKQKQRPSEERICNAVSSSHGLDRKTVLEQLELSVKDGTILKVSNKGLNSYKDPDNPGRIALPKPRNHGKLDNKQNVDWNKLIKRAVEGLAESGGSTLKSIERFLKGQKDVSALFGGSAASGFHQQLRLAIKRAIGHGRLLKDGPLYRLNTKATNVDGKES
Oligonucleotide	E-score
GCGTAGTA	0.0962
ACCGGCCT	0.11
ATACCTTC	-0.116
CGTAGGAG	-0.00481
AAGACGCG	0.195
GCTACACC	0.0177
ACCACCCG	0.175
AAGGCTAA	-0.103
GCGGCTCC	0.266
AGGAAATG	-0.188
AGCCCGGC	0.151
AATAGAGG	-0.0637
CTTTTGTC	-0.0094
CCTGCACG	-0.0405
GGCCCCAC	-0.135
CCTAAACA	-0.0353
CGCCCTGC	0.217
AGCCGGAC	0.187
GGGCCCTA	-0.0223
GCCAACCC	-0.00598
GCCGTCGA	0.238
ACAAAGTC	-0.182
GCACGGTA	0.159
CAGCTTCG	-0.119
CCCGCACC	0.161

Sample 4
Target: Interferon regulatory factor 7, full length, phosphomimetic (IRF7, Homo sapiens, UniProt Q92985, residues 1-503, S101K/S471D/S472D/S475D/S476D/S477D/S483D/S484D/S487D)
Sequence of UniProt Q92985 (whole entry, unmodified, looked up): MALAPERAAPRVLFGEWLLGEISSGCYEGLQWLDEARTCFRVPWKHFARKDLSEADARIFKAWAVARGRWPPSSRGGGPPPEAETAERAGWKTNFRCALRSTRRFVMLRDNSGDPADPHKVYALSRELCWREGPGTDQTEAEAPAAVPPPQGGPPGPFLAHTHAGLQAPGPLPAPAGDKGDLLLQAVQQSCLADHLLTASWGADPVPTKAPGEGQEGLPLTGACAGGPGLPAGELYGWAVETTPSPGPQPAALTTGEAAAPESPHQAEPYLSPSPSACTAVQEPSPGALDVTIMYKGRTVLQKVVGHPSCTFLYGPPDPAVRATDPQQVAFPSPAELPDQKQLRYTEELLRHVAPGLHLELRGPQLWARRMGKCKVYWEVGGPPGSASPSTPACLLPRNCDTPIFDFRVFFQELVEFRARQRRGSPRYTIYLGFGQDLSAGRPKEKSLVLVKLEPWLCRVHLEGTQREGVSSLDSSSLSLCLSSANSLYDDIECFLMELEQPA
Method: protein-binding microarray
Form: double-stranded DNA, one strand shown
Medium: in vitro
Tested at: 250 nM
Notes: 60-bp whole probe
Added: salmon DNA 0.4 mg/ml
Relative to: random background probes
Direction: higher = stronger binding
Constant ends, left off below: GCCTAGCAC … GTCTTGATTCGCTTGACGCTGCTG
Oligonucleotide	log fluorescence [z-score]
TTAGGACTGGTTCTCGGTTAGTGCTAG	1.42
TTAGGTATCCGTCTCCTTTAGTGCTAG	0.292
TCAATTTTCATTTTCCAACTGTGCTAG	2.2
TTAGATATCGGGACTGAATTAGTGCTA	0.112
GACGAGCTGGGGACTGGAGACGTGCTA	-1.05
TCATTTATACCTTAGGTACTGTGCTAG	1.32
TTAGGTTTCGGTTCCGGTTGGTGCTAG	12.5
TCATTTTTTTTTCCCTGACTGTGCTAG	1.08
TTTGCTTTCTTTTATGCTCTGTGCTAG	0.437
CAGAGTCTAGCCATTGTGGGTGTGCTA	-0.873
AACCATTTTGGTTTTCTCTAGTGCTAG	0.393
TTAGGGCTCGGACTGGGTTAGTGCTAG	-0.185
GCCCCACCCACTCTGGCCCCGTGCTAG	0.814
TGATGACTGGAGTCTGGACTAGTGCTA	-0.828
TCAGTTTCTCCTTTCGGACTGTGCTAG	3.61
TTAAGTATCGGGTATCGGTTAGTGCTA	1.37
AGACCTTGCTTTATGTGTAGGTGCTAG	-0.0242
CCTCCTTACTTTATGTAGGAGTGCTAG	0.449
CACGGTCTCCTTATCCTGACGTGCTAG	0.419
TTAGGTATCGTGTTTCGGTTAGTGCTA	4.53
TTGCTTCTATAGGCTAGAATCGTGCTA	-0.346
GACGAACTGAGTCTTGAGACGTGCTAG	-0.16
TCATGTCTCCCCCATCTTACTGTGCTA	-0.314
